Measurements gathered from unrelated publications.
Each numbered part is a random draw from the data of one study; scales do not carry over between parts. Substitutions count along the parent as printed.

Study 1
Partner: ARF9 519-638 (Arabidopsis thaliana, UniProt Q9XED8)
Technique: two-hybrid
Setting: weak activation fusion
Relative to: out of 4 tests
Direction: higher = firmer interaction
Quantity: positive tests
B1: ARF7 1030-1164 (Arabidopsis thaliana, UniProt P93022); chain PAQTQRMRTYTKVQKRGSVGRSIDVNRYRGYDELRHDLARMFGIEGQLEDPQTSDWKLVYVDHENDILLVGDDPWEEFVNCVQSIKILSSAEVQQMSLDGNFAGVPVTNQACSGGDSGNAWRGHYDDNSATSFNR
B2: ARF8 699-811 (Arabidopsis thaliana, UniProt Q9FGV1); chain NSSNQTKNFVKVYKSGSVGRSLDISRFSSYHELREELGKMFAIEGLLEDPLRSGWQLVFVDKENDILLLGDDPWESFVNNVWYIKILSPEDVHQMGDHGEGSGGLFPQNPTHL
B3: ARF1 538-665 (Arabidopsis thaliana, UniProt Q8L7G0); chain SRQIRSCTKVHMQGSAVGRAIDLTRSECYEDLFKKLEEMFDIKGELLESTKKWQVVYTDDEDDMMMVGDDPWNEFCGMVRKIFIYTPEEVKKLSPKNKLAVNARMQLKADAEENGNTEGRSSSMAGSR
B4: ARF2 727-859 (Arabidopsis thaliana, UniProt Q94JM3); chain TKTNSSRSCTKVHKQGIALGRSVDLSKFQNYEELVAELDRLFEFNGELMAPKKDWLIVYTDEENDMMLVGDDPWQEFCCMVRKIFIYTKEEVRKMNPGTLSCRSEEEAVVGEGSDAKDAKSASNPSLSSAGNS
Construct (chain): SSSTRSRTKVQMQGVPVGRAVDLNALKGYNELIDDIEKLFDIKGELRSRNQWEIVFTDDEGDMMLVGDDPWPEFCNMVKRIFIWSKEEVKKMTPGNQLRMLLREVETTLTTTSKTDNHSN
B1 (ARF7 1030-1164): 1
B2 (ARF8 699-811): 1
B3 (ARF1 538-665): 0
B4 (ARF2 727-859): 0

Study 2
Target: Interferon regulatory factor 5, full length, phosphomimetic (IRF5, Homo sapiens, UniProt Q13568-2, residues 1-514, K96S/S451D/S453D/S456D/S462D)
Technique: protein-binding microarray
Form: double-stranded DNA, one strand shown
Medium: in vitro
Concentration: 250 nM
Setting: 60-bp whole probe
Added: salmon DNA 0.4 mg/ml
Relative to: random background probes
Direction: higher = stronger binding
Quantity: log fluorescence
Shared flanks, not repeated: GCCTAGCAC … GTCTTGATTCGCTTGACGCTGCTG
TTAGAACTGGGAACTGGATTAGTGCTA: -0.276 z-score
TTAGATATCAGTATCGATTCGTGCTAG: 7.05 z-score
ATATATATTATATATACACATGTGCTA: 0.942 z-score
TTAGATATCAGTCTCCATTAGTGCTAG: 1.14 z-score
TTAGATATCGGGACCGGATTAGTGCTA: 1.19 z-score
GACGGACTGGACACTGGCGACGTGCTA: -0.77 z-score
TCACTTTCCACTTGTCTTACTGTGCTA: 2.3 z-score
TCATAATTCACTATTACACTGTGCTAG: 1.02 z-score

Study 3
Target: CCND1, cyclin fold, Cln2 fusion (human)
Technique: yeast growth competition, sequencing
Medium: yeast
Setting: weak parent motif
Relative to: not given
Direction: higher = stronger binding
Quantity: normalised enrichment score
Starting sequence: WEE1 docking peptide (human); HKTFRKLRLFDTP
HKTYRKLRLFDTP [F4Y]: -0.527
HKMFRKLRLFDTP [T3M]: 0.465
HKTFRKSRLFDTP [L7S]: -0.888
HKTFRKLSLFDTP [R8S]: 0.824
HKHFRKLRLFDTP [T3H]: 0.67
HKTFRKLRLFDVP [T12V]: 0.229
HKTFRKLRLNDTP [F10N]: -0.795
HKTFRKLRLDDTP [F10D]: -0.973

Other studies, line by line
KPPRGVLLY — binding (HLA class I histocompatibility antigen, A alpha chain, allele A*80:01 (Homo sapiens, UniProt P04439); peptide-MHC binding; peptide; concentration not given): inactive

A few entries again (study 2):
TTAGAACTGGGAACTGGATTAGTGCTA: -0.276 z-score
